Assay results collected from several papers.
Protocols differ between the studies behind these lines. “And” joins repeats or separate records; there may be more than shown. ± marks the error that the study gave.
Voltage-dependent P/Q-type calcium channel subunit alpha-1A: Voltage-dependent P/Q-type calcium channel subunit alpha-1A (Homo sapiens, UniProt O00555)
UCHL1: Ubiquitin carboxyl-terminal hydrolase isozyme L1 (UCHL1, Homo sapiens, UniProt P09936)
BEST1: BEST1 (Homo sapiens, UniProt O76090)

CC[C@H](C)[C@@H]1NC(=O)[C@H](C)NC(=O)[C@H]([C@@H](C)CC)NC(=O)[C@H](CCC(N)=O)NC(=O)[C@H](C)NC(=O)[C@H](CCCNC(=N)N)NC(=O)[C@H](C(C)C)NC(=O)[C@H](CC(C)C)NC(=O)[C@H](CCC(=O)O)NC(=O)[C@H](CCCNC(=N)N)NC(=O)CNC(=O)[C@@H](NC(=O)[C@H](CC(C)C)NC(=O)[C@H](CCCCN)NC(=O)[C@@H](NC(=O)[C@@H](NC(=O)[C@H](CCC(=O)O)NC(=O)[C@H](CCC(=O)O)NC(=O)[C@H](CCSC)NC(=O)[C@H](Cc2c[nH]c3ccccc23)NC(=O)[C@H](CO)NC(=O)[C@@H](N)CC(=O)O)C(C)C)[C@@H](C)CC)CSSC[C@@H]2NC(=O)[C@@H](NC(=O)[C@H](CCCCN)NC(=O)[C@H](CC(N)=O)NC(=O)[C@H](C)NC(=O)[C@H](CC(C)C)NC(=O)[C@H](C)NC(=O)[C@H](CO)NC(=O)[C@H](Cc3ccc(O)cc3)NC(=O)[C@H](CC(C)C)NC(=O)[C@H](CCC(N)=O)NC(=O)c3ccc(-c4c5ccc(=[N+](C)C)cc-5oc5cc(N(C)C)ccc45)c(C(=O)[O-])c3)CSSC[C@H](NC(=O)CNC(=O)[C@H](C(C)C)NC(=O)[C@H](Cc3c[nH]cn3)NC2=O)C(=O)N[C@@H]([C@@H](C)O)C(=O)N[C@@H](CCCCN)C(=O)N[C@@H](CCCNC(=N)N)C(=O)N[C@@H](CO)C(=O)N[C@@H](CC(C)C)C(=O)N[C@@H](C)C(=O)N[C@@H](CCCNC(=N)N)C(=O)N[C@@H](Cc2ccccc2)C(=O)N[C@H](C(=O)O)CSSC[C@@H](C(=O)NCC(=O)N[C@@H](CCSC)C(=O)N[C@@H](CO)C(=O)N[C@H](C(=O)N[C@@H](Cc2c[nH]c3ccccc23)C(=O)N[C@@H](CO)C(=O)O)[C@@H](C)O)NC1=O  koff slow phase (Relaxin receptor 1 (RXFP1, Homo sapiens, UniProt Q9HBX9, F76A/Y80A); NanoBRET dissociation; infinite dilution, with: 10 µM relaxin): 0.000927 s⁻¹
Cn1ncc(S(=O)(=O)NCc2ccc(S(=O)(=O)NC3CC3)cc2)c1C(=O)O  remaining activity (malate dehydrogenase; enzyme activity, inhibitor; 200 µM, pH 7.0, 1% DMSO, aggregation counter-screen): 128%
CC(=O)N[C@H]1[C@H](Oc2ccc([N+](=O)[O-])cc2)O[C@H](CO)[C@@H](O)[C@@H]1O  Km (beta-N-acetylglucosaminidase, rabbit alveolar macrophage; substrate, p-nitrophenol release; pH 4.3, 37 °C, Sephadex G-200 purified): 1030 ± 100 µM
CC(=O)N[C@@H](Cc1c[nH]c2ccccc12)C(=O)N[C@@H](CC(=O)O)C(=O)N1CCC[C@H]1C(=O)N1CCC[C@H]1C(=O)N[C@@H](CC(C)C)C(=O)N[C@@H](Cc1c[nH]cn1)C(=O)N[C@@H](CO)C(=O)N[C@H](C(=O)N[C@@H](C)C(N)=O)[C@@H](C)OP(=O)(O)O  binding stoichiometry (PLK1 (Homo sapiens, UniProt P53350); polo-box domain binding, isothermal titration calorimetry; concentration not given, 25 °C): 0.99
CNCC[C@H](Oc1cccc2ccccc12)c1cccs1  inhibition (Voltage-dependent P/Q-type calcium channel subunit alpha-1A; ion current, antagonist; HEK293; 3 µM): 13%
C#CCCC1(CC[C@H](NC(=O)NCCCCCCNC(=O)NCCNC(=O)COc2cccc([C@@H](CCc3ccc(OC)c(OC)c3)OC(=O)[C@@H]3CCCCN3C(=O)C(=O)C(C)(C)CC)c2)C(N)=O)N=N1.O=C(O)C(F)(F)F  probe labeling fluorescence (FKBP1A (Homo sapiens, UniProt P62942); photoaffinity labeling, in-gel fluorescence, measured: Alexa Fluor 647 click label; 0.08 µM, UV irradiation 365 nm; higher = more labeling): 4420 a.u.
O=c1ccc2c(OCCCCOc3ccccc3)c3ccoc3c(O)c2o1  Hill coefficient (Kcna3 (Mus musculus, UniProt P16390); potassium current, blocker; L929): 1.8
CC(=O)O[C@H]1C(=O)[C@@]2(C)[C@H]([C@H](OC(=O)c3ccccc3)[C@]3(O)C[C@H](OC(=O)[C@H](O)[C@@H](NC(=O)c4ccccc4)c4ccccc4)C(C)=C1C3(C)C)[C@]1(OC(C)=O)CO[C@@H]1C[C@@H]2O  inhibition (Voltage-dependent P/Q-type calcium channel subunit alpha-1A; ion current, antagonist; HEK293; 3 µM): 11%
COc1cc(C=O)cc(Cl)c1OS(=O)(=O)c1ccccc1  labelling (UCHL1; covalent, intact protein LC-MS; 12.5 µM): 12.9%
COC(=O)c1cn(C)c2ccc(-c3cccnc3)cc12  activation (Nuclear receptor subfamily 1 group I member 3 (Homo sapiens, UniProt Q14994); reporter gene, Gal4 hybrid reporter; 10 µM; baseline: vehicle): 1.01 fold
CC(=O)Nc1ccc(C=C(C#N)C(=O)Nc2c(C)cc(C)cc2C)cc1  labelling (UCHL1; covalent, intact protein LC-MS; 12.5 µM): 14.1%
O=C(O)c1ccc(Nc2ncc3c(n2)-c2ccc(Cl)cc2C(c2c(F)cccc2F)=NC3)cc1  remaining activity (PKD2(h); kinase activity; 1 µM): 90%
COc1ccc(C=C(C#N)C(=O)Nc2ccc3c(c2)OCCO3)cc1O  labelling (UCHL1; covalent, intact protein LC-MS; 12.5 µM): 13.5%
Nc1ncnc2c1ncn2[C@@H]1O[C@H](COP(=O)(O)OP(=O)(O)OP(=O)(O)O)[C@@H](O)[C@H]1O  Km (PAK1 (Homo sapiens, UniProt Q13153); substrate): 4.4 µM
Nc1nc(SCc2ccc(Cl)cc2)nn1S(=O)(=O)c1ccc([N+](=O)[O-])cc1  probe labeling increase (LYPLAL1 (Homo sapiens, UniProt Q5VWZ2); enzyme activity, activator, gel-based ABPP; purified protein; concentration not given, with: FP-rhodamine; baseline: DMSO): 2.1 fold
O=C(O)c1ccc([N+](=O)[O-])cc1  current density (BEST1; whole-cell patch clamp; HEK293 transiently expressing channel; concentration not given, membrane potential -80 mV): -33.3 pA/pF and -57.3 pA/pF and -101 pA/pF and -80.1 pA/pF and -76.9 pA/pF and -55 pA/pF and -34.2 pA/pF
Cn1nnc2ccc(Cc3cccc(CO)c3)cc21  ligand efficiency (Bromodomain-containing protein 4, BD1 (BRD4, Homo sapiens, UniProt O60885); BROMOscan binding): 0.37
COc1cc(CN(C)CCc2ccccc2)ccc1OCc1ccccc1  inhibition (Trypanosoma cruzi; reporter translation, Renilla luciferase mRNA translation; cell-free extract; 40 µM; baseline: DMSO): -11.9%
O=c1nc(SCc2cc(F)cc(C(F)(F)F)c2)nc(SCc2csc3ccc(Cl)cc23)[nH]1  mean relaxed DNA (TOP2A (Homo sapiens, UniProt P11388); DNA relaxation; 7.8 µM): 66.2%
O=C(O)C1=CCNCC1  current density (BEST1; whole-cell patch clamp; HEK293 transiently expressing channel; concentration not given, membrane potential 100 mV): 84.4 pA/pF and 181 pA/pF and 96.8 pA/pF and 145 pA/pF and 59.5 pA/pF and 160 pA/pF
COC(=O)C1CC(C(NS(=O)(=O)c2cccc(Cl)c2O)C(=O)OC)C1 (centres unmarked)  remaining activity (malate dehydrogenase; enzyme activity, inhibitor; 200 µM, pH 7.0, 1% DMSO, aggregation counter-screen): 101%
Cc1cc(Oc2ncccc2CN2CCN(c3cccc4ccccc34)CC2)ccc1-c1c(C)c(=O)[nH]c(=O)n1C  selectivity ratio (ADRA2C (Homo sapiens, UniProt P18825); binding, radioligand binding; with: [3H]rauwolscine; baseline: Ki alpha2B over Ki alpha2C): 9
O=C(O)c1ccccc1S(=O)(=O)NCc1ccccc1C1CCC1  remaining activity (malate dehydrogenase; enzyme activity, inhibitor; 200 µM, pH 7.0, 1% DMSO, aggregation counter-screen): 86%
O=C(CCl)N1c2ccccc2Sc2ccc(Cl)cc21  labelling (UCHL1; covalent, intact protein LC-MS; 12.5 µM): 16.5%
COc1cc(NC(=O)c2cscn2)ccc1/N=N/c1ccccc1Cl  activation (Metabotropic glutamate receptor 6 (Homo sapiens, UniProt O15303); positive allosteric modulator, IP accumulation; HEK293; 30 µM, in the dark, with: low-dose orthosteric agonist): 45.3%
CN1C=C/C(=C\c2cc[n+](C)c3ccccc23)c2ccccc21  inhibition (Trypanosoma cruzi; reporter translation, Renilla luciferase mRNA translation; cell-free extract; 40 µM; baseline: DMSO): 5.9%
Cc1nc(CSc2nc(SCc3ccc(C(C)C)cc3)nc(=O)[nH]2)cs1  decatenated DNA (TOP2B (Homo sapiens, UniProt Q02880); decatenation; 125 µM, replicate 1): 0.25%
CN(C(=O)n1cnc(-c2ccc[n+]([O-])c2)c1)C1CCCCC1  ED50 (Faah (Rattus norvegicus, UniProt P97612); enzyme activity, inhibitor; rat, liver; oral, 1 h): 5 µg/kg
C=CC(=O)N1CCC(COCC(=O)N2CCN(c3nc(-c4cnc(N)nc4C(F)F)nc(N4CCOC[C@@H]4C)n3)CC2)CC1  remaining binding (EPHA7 (Homo sapiens, UniProt Q15375); KINOMEscan; 1 µM): 85%
COc1ccc(C)cc1CN1CCC(c2cc3ncccc3cn2)CC1  binding stoichiometry (Catenin beta-1, residues 141-305 (CTNNB1, Homo sapiens, UniProt P35222); ITC; concentration not given, 25 °C): 1.33
COc1cc(-c2cc(C(C)=O)n3ccccc23)cc(OC)c1Cn1ccnc1  ΔTm (Bromodomain-containing protein 4, BD2 (BRD4, Homo sapiens, UniProt O60885)): 5.1 °C
Nc1ncnc2c1ncn2[C@@H]1O[C@H](COP(=O)(O)CP(=O)(O)OP(=O)(O)O)[C@@H](O)[C@H]1O  specific binding (P2X purinoceptor 1 (P2RX1, Homo sapiens, UniProt P51575, K136W); saturation binding; HEK293; 103 nM): 3420 CCPM and 4640 CCPM
CC[C@@H]1[C@H](F)C(=O)N[C@@H]1COc1nccc2cc(C(N)=O)c(OC)cc12  inhibition (LRRK2 (Homo sapiens, UniProt Q5S007); ATP-site probe binding, ActivX profiling; THP-1 cell lysate; 0.2 mM, Lys2 site): 22.9%
Cc1cc(CN(C(=O)CCl)c2cn(C)nn2)ccc1Cl  labelling (UCHL1; covalent, intact protein LC-MS; 12.5 µM): 21.8%
CCCCCC/C=C\CCCCCCCCCC(=O)O  Km (uncharacterized protein (Marinitoga piezophila, UniProt H2J7C1); substrate, GC-FID; pH 6.0, 20 °C, 5% ethanol, 50 mM NaCl): 5 ± 0.8 µM

Some of these lines once more:
CC[C@H](C)[C@@H]1NC(=O)[C@H](C)NC(=O)[C@H]([C@@H](C)CC)NC(=O)[C@H](CCC(N)=O)NC(=O)[C@H](C)NC(=O)[C@H](CCCNC(=N)N)NC(=O)[C@H](C(C)C)NC(=O)[C@H](CC(C)C)NC(=O)[C@H](CCC(=O)O)NC(=O)[C@H](CCCNC(=N)N)NC(=O)CNC(=O)[C@@H](NC(=O)[C@H](CC(C)C)NC(=O)[C@H](CCCCN)NC(=O)[C@@H](NC(=O)[C@@H](NC(=O)[C@H](CCC(=O)O)NC(=O)[C@H](CCC(=O)O)NC(=O)[C@H](CCSC)NC(=O)[C@H](Cc2c[nH]c3ccccc23)NC(=O)[C@H](CO)NC(=O)[C@@H](N)CC(=O)O)C(C)C)[C@@H](C)CC)CSSC[C@@H]2NC(=O)[C@@H](NC(=O)[C@H](CCCCN)NC(=O)[C@H](CC(N)=O)NC(=O)[C@H](C)NC(=O)[C@H](CC(C)C)NC(=O)[C@H](C)NC(=O)[C@H](CO)NC(=O)[C@H](Cc3ccc(O)cc3)NC(=O)[C@H](CC(C)C)NC(=O)[C@H](CCC(N)=O)NC(=O)c3ccc(-c4c5ccc(=[N+](C)C)cc-5oc5cc(N(C)C)ccc45)c(C(=O)[O-])c3)CSSC[C@H](NC(=O)CNC(=O)[C@H](C(C)C)NC(=O)[C@H](Cc3c[nH]cn3)NC2=O)C(=O)N[C@@H]([C@@H](C)O)C(=O)N[C@@H](CCCCN)C(=O)N[C@@H](CCCNC(=N)N)C(=O)N[C@@H](CO)C(=O)N[C@@H](CC(C)C)C(=O)N[C@@H](C)C(=O)N[C@@H](CCCNC(=N)N)C(=O)N[C@@H](Cc2ccccc2)C(=O)N[C@H](C(=O)O)CSSC[C@@H](C(=O)NCC(=O)N[C@@H](CCSC)C(=O)N[C@@H](CO)C(=O)N[C@H](C(=O)N[C@@H](Cc2c[nH]c3ccccc23)C(=O)N[C@@H](CO)C(=O)O)[C@@H](C)O)NC1=O  koff slow phase (Relaxin receptor 1 (RXFP1, Homo sapiens, UniProt Q9HBX9, F76A/Y80A); NanoBRET dissociation; infinite dilution, with: 10 µM relaxin): 0.000927 s⁻¹
Cn1ncc(S(=O)(=O)NCc2ccc(S(=O)(=O)NC3CC3)cc2)c1C(=O)O  remaining activity (malate dehydrogenase; enzyme activity, inhibitor; 200 µM, pH 7.0, 1% DMSO, aggregation counter-screen): 128%
CC(=O)N[C@H]1[C@H](Oc2ccc([N+](=O)[O-])cc2)O[C@H](CO)[C@@H](O)[C@@H]1O  Km (beta-N-acetylglucosaminidase, rabbit alveolar macrophage; substrate, p-nitrophenol release; pH 4.3, 37 °C, Sephadex G-200 purified): 1030 ± 100 µM
CC(=O)N[C@@H](Cc1c[nH]c2ccccc12)C(=O)N[C@@H](CC(=O)O)C(=O)N1CCC[C@H]1C(=O)N1CCC[C@H]1C(=O)N[C@@H](CC(C)C)C(=O)N[C@@H](Cc1c[nH]cn1)C(=O)N[C@@H](CO)C(=O)N[C@H](C(=O)N[C@@H](C)C(N)=O)[C@@H](C)OP(=O)(O)O  binding stoichiometry (PLK1 (Homo sapiens, UniProt P53350); polo-box domain binding, isothermal titration calorimetry; concentration not given, 25 °C): 0.99
CNCC[C@H](Oc1cccc2ccccc12)c1cccs1  inhibition (Voltage-dependent P/Q-type calcium channel subunit alpha-1A; ion current, antagonist; HEK293; 3 µM): 13%
